# Measured values collected from several papers.
# Compare with care: the assays were run in different laboratories. “And” joins repeats or separate records; there may be more than shown. ± gives the spread as reported.
# Sequence of UniProt Q9Y5L0 (whole entry, looked up): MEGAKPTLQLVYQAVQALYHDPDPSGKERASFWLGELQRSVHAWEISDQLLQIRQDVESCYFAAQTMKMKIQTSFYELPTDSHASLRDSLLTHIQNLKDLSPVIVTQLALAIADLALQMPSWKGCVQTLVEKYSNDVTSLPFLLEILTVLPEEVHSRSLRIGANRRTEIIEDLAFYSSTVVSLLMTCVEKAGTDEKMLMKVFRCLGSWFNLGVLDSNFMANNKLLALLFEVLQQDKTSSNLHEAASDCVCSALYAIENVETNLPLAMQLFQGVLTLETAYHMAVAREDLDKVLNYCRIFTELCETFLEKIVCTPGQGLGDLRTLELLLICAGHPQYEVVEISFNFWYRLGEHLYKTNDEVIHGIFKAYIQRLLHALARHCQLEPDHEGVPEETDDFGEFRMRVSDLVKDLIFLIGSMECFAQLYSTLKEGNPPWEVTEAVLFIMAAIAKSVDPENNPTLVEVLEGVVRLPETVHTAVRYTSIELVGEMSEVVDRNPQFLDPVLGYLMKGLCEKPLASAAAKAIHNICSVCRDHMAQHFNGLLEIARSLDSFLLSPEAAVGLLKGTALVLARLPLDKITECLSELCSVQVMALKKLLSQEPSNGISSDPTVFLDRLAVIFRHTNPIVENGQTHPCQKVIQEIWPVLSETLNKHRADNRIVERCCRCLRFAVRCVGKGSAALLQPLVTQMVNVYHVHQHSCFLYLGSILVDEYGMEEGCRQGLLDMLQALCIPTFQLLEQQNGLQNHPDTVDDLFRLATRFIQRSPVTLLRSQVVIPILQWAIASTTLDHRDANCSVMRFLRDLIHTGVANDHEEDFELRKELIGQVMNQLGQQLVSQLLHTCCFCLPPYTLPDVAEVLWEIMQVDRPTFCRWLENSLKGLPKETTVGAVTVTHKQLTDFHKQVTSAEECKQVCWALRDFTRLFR
SMILES,target or system,assay,test system,setting,measurement,value
O=C(Nc1cc(F)c(F)c(F)c1)c1ccc(F)c(S(=O)(=O)NCc2cccc(B(O)O)c2)c1,hepatitis B virus,"viral replication, qPCR, refers to: positive-strand HBV DNA","HepDES19, genotype D",3 days,EC50,0.83 ± 0.33 µM
CC(C)[C@H](NC(=O)c1ccccc1NC(=O)c1ccccc1)C(=O)N[C@H](CO)C(C)C,human coronavirus OC43,"viral replication, plaque reduction",MRC-5,6 days,EC50,> 50 µM
O=c1[nH]c(=O)n([C@H]2C[C@H](O)[C@@H](CO)O2)cc1/C=C/Br,human alphaherpesvirus 2,,"HEL, strain G",,EC50,96 µM
COc1cc2c3c(c1OC)-c1ccccc1C[C@H]3N(C)CC2,Toxoplasma gondii,parasite growth,"HFF, bradyzoite, glutamine-induced",,EC50,25 µM
CC1(C)OB(c2ccccc2CNS(=O)(=O)c2cc(C(=O)Nc3cc(F)c(F)c(F)c3)ccc2F)OC1(C)C,hepatitis B virus,"viral replication, strand-preferential qPCR, refers to: positive-strand HBV DNA","HepDES19 cells, genotype D",3 days,EC50,> 5 µM
COC(=O)[C@@H]1[C@@H](c2ccccc2)[C@]2(c3ccc(OC)cc3)Oc3cc(OC)cc(OC)c3[C@@]23N=C(C)N[C@@]13O,Hepatitis E virus,viral replication,"HepG2 HEV-1 replicon, genotype 1",24 h,EC50,0.00146 µM
CC1(C)OB(c2cccc(NS(=O)(=O)c3cc(C(=O)Nc4ccc(F)c(F)c4)ccc3F)c2)OC1(C)C,hepatitis B virus,"viral replication, qPCR, refers to: positive-strand HBV DNA","HepDES19, genotype D",3 days,EC50,5.07 µM
COc1ccc(C(=O)Nc2ccccc2C(=O)N[C@H](C(=O)N[C@H](CO)C(C)C)C(C)C)cc1,human coronavirus OC43,"viral replication, plaque reduction",MRC-5,6 days,EC50,> 50 µM
C[C@H]1CN(c2n[nH]c3nc(N[C@H]4CC[C@H](NS(=O)(=O)CCC(F)(F)F)CC4)ncc23)CCO1,"Transportin-3 (Homo sapiens, UniProt Q9Y5L0)",biochemical,,,IC50,≥ 20 µM
O=C(Nc1cc(F)c(F)c(F)c1)c1ccc(F)c(S(=O)(=O)Nc2ccccc2B(O)O)c1,hepatitis B virus,"viral replication, qPCR, refers to: positive-strand HBV DNA","HepDES19, genotype D",3 days,EC50,> 5 µM
CC(C)[C@H](NC(=O)c1ccccc1NC(=O)c1ccc(O)cc1)C(=O)N[C@H](CO)C(C)C,human coronavirus OC43,"viral replication, plaque reduction",MRC-5,6 days,EC50,> 50 µM
O=C(Nc1cc(F)c(F)c(F)c1)c1ccc(F)c(S(=O)(=O)Nc2ccc(B(O)O)cc2)c1,hepatitis B virus,"viral replication, qPCR, refers to: positive-strand HBV DNA","HepDES19, genotype D",3 days,EC50,3.53 µM
C[C@@H]1C[C@@H]([C@H](O)CC2CC(=O)NC(=O)C2)C(=O)[C@@H](C)C1,Mus musculus,"gene silencing, high-content imaging",LDR reporter GFP cells,"retest, mean of two runs",EC50,5.01 µM
N#C[C@@]1(n2ccc(N)nc2=O)O[C@H](CO)[C@@H](O)[C@H]1O,hepatitis B virus,"viral replication, cell-based",,,EC50,> 10 µM
C[C@H]1CCC/C=C/[C@@H]2C[C@H](O)C[C@H]2[C@H](O)/C=C/C(=O)O1,Toxoplasma gondii,bradyzoite growth,,"pH 8.2, alkaline-induced bradyzoites",EC50,0.4 µM
COc1ccc([C@@]23Oc4cc(OC)cc(OC)c4[C@@]24N=C(C)N[C@@]4(O)[C@H](C(=O)N(C)OC)[C@H]3c2ccccc2)cc1,Hepatitis E virus,viral replication,"HepG2 HEV-3 replicon, genotype 3",24 h,EC50,0.00162 µM
COc1ccc(NC(=O)N2CCCCN3[C@H](CN(C)C)[C@H](c4ccc(C#Cc5ccccc5)cc4)[C@@H]3C2)cc1,Toxoplasma gondii,bradyzoite growth,,"glutamine-induced bradyzoites, glucose-free medium",EC50,0.08 µM
COCC(=O)N1CCC[C@H](C(=O)NCc2nc(-c3ccc(C#N)cc3)cs2)C1,Plasmodium falciparum,,Dd2,with: WLW-vs fixed ratio 0.60:0.40,EC50,0.0075 µM and 0.005 µM
COC(=O)N[C@H](C(=O)N1CCC[C@H]1c1ncc(-c2ccc(-c3ccc(-c4cnc([C@@H]5CCCN5C(=O)[C@@H](NC(=O)OC)C(C)C)[nH]4)cc3)cc2)[nH]1)C(C)C,human immunodeficiency virus,viral replication,MT-2,,EC50,> 20 µM
Cc1ccc(N(c2ccc(NC(=O)CN(C)c3ccccc3N3CCCC3=O)cc2)C(C)C)cc1,Plasmodium falciparum,"parasite growth, SYBR Green",Dd2 population A6 P534S,72 h,EC50,0.75 µM
N#CC(C#N)=NNc1cccc(Cl)c1,human coronavirus OC43,virus-induced cell killing,MRC-5,screen,maximum inhibition,17.6%
COc1ccc2c(c1)[nH]c1c(C)nccc12,Trypanosoma brucei,cell growth,,,EC50,> 3 µM
O=C(Nc1cc(F)c(F)c(F)c1)c1ccc(F)c(S(=O)(=O)NCc2ccccc2B(O)O)c1,hepatitis B virus,"viral replication, qPCR, refers to: positive-strand HBV DNA","HepDES19, genotype D",3 days,EC50,> 5 µM
CN1CC[C@@]2(C)c3cc(OC(=O)Nc4ccccc4)ccc3N(C)[C@@H]12,Toxoplasma gondii,"parasite growth, luciferase reporter","HFF, tachyzoite",72 h,EC50,30 µM
Cc1cc(O)c2c(c1)C(=O)c1cccc(O)c1C2=O,human coronavirus OC43,virus-induced cell killing,MRC-5,screen,maximum inhibition,6.07%
O=C(N1CCC2(CC1)C[C@@H](CN1CCCCS1(=O)=O)CCO2)C1(c2ccccc2)CCCC1,echovirus 11,viral replication,,,EC50,> 32 µM

# Repeated from above:
SMILES,target or system,assay,test system,setting,measurement,value
O=C(Nc1cc(F)c(F)c(F)c1)c1ccc(F)c(S(=O)(=O)NCc2ccccc2B(O)O)c1,hepatitis B virus,"viral replication, qPCR, refers to: positive-strand HBV DNA","HepDES19, genotype D",3 days,EC50,> 5 µM
CC1(C)OB(c2cccc(NS(=O)(=O)c3cc(C(=O)Nc4ccc(F)c(F)c4)ccc3F)c2)OC1(C)C,hepatitis B virus,"viral replication, qPCR, refers to: positive-strand HBV DNA","HepDES19, genotype D",3 days,EC50,5.07 µM
